Experimental data collected from several papers.
± gives the spread as reported.
Chain of UniProt P20309 (whole entry, looked up): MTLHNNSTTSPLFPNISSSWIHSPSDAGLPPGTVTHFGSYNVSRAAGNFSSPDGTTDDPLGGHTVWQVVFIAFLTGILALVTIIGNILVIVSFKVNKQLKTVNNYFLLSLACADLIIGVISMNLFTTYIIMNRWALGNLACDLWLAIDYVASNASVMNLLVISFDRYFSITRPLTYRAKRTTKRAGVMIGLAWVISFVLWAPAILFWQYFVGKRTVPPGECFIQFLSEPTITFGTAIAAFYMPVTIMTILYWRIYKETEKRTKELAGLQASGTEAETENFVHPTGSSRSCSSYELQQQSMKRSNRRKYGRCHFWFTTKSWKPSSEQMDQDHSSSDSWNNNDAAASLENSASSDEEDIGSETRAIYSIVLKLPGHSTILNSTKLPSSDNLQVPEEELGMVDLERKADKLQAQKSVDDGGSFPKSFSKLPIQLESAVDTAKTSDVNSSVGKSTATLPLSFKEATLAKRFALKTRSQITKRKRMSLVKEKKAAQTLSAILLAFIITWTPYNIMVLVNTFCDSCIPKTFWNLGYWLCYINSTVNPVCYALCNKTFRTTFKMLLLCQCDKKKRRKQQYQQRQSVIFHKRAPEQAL

| SMILES | target or system | test | system | conditions | how to read | measurement | result |
| --- | --- | --- | --- | --- | --- | --- | --- |
| CC[C@H]1[C@@H](O)[C@@H]2[C@H](CC[C@]3(C)[C@@H]([C@H](C)CCOS(=O)(=O)[O-])CC[C@@H]23)[C@@]2(C)CC[C@@H](O)C[C@@H]12.[Na+] |  |  | ob/ob NASH mice, plasma | oral, 3 mg/kg once daily, baseline before treatment, 8 wk study |  | plasma triglycerides | 0.8 ± 0.1 mmol/L |
| N=C(N)NCCC[C@@H]1NC(=O)[C@H](CCCCNC(=O)CC[C@H](NC(=O)CC[C@H](NC(=O)CN2CCN(CC(=O)O)CCN(CC(=O)O)CCN(CC(=O)O)CC2)C(=O)N[C@@H](CCC(=O)NCCCC[C@@H]2NC(=O)[C@@H](Cc3ccccc3)NC(=O)[C@H](CC(=O)O)NC(=O)CNC(=O)[C@H](CCCNC(=N)N)NC2=O)C(=O)NCCCC[C@@H]2NC(=O)[C@@H](Cc3ccccc3)NC(=O)[C@H](CC(=O)O)NC(=O)CNC(=O)[C@H](CCCNC(=N)N)NC2=O)C(=O)NCCCC[C@@H]2NC(=O)[C@@H](Cc3ccccc3)NC(=O)[C@H](CC(=O)O)NC(=O)CNC(=O)[C@H](CCCNC(=N)N)NC2=O)NC(=O)[C@@H](Cc2ccccc2)NC(=O)[C@H](CC(=O)O)NC(=O)CNC1=O [indium-111 labelled] |  |  | female athymic nu/nu mice, muscle | intravenous, 111 kBq, 24 h |  | tissue uptake | 0.78 ± 0.19 %ID/g |
| CC(C)C[C@H](NC(=O)[C@H](Cc1ccc(O)cc1)NC(=O)[C@@H](CCCNC(=N)N)NC(=O)[C@@H](CO)NC(=O)[C@H](Cc1ccccc1)NC(=O)[C@H](CC1CCCCC1)NC(=O)[C@H](CC(=O)O)NC(=O)CN1CCCN2CCN(CCCN(CC(=O)O)CC2)CC1)C(=O)N[C@@H](Cc1c[nH]c2ccccc12)C(=O)N[C@@H](CO)C(=O)O [copper-64 labelled] |  |  | female NMRI nude mice, kidney | 1 h p.i. |  | tissue uptake | 15 ± 1 %ID/g |
| CCCCC/C=C\C/C=C\CCCCCCCC(=O)OC[C@H](NC(=O)[C@H](Cc1c[nH]c2ccccc12)NC(=O)[C@H](Cc1c[nH]cn1)NC(=O)[C@@H]1CCC(=O)N1)C(=O)N[C@@H](Cc1ccc(O)cc1)C(=O)N[C@H](CC(C)C)C(=O)N[C@@H](CC(C)C)C(=O)N[C@@H](CCCNC(=N)N)C(=O)N1CCC[C@H]1C(=O)NCC |  |  | deionized water |  |  | critical aggregation concentration | 14.1 µg/mL |
| CCCCOc1ccc(C(=O)OCCN2CC=CCC2)cc1 | CHRM3 (Homo sapiens, UniProt P20309) | inositol phosphate accumulation, antagonist, Schild analysis | CHO | added: carbachol |  | Kb | 29.5 µM |
| N=C(N)NCCC[C@@H]1NC(=O)[C@H](CCCCNC(=O)CNC(=O)CNC(=O)CNC(=O)CC[C@H](NC(=O)CNC(=O)CNC(=O)CNC(=O)CN2CCN(CC(=O)O)CCN(CC(=O)O)CCN(CC(=O)O)CC2)C(=O)NCC(=O)NCC(=O)NCC(=O)NCCCC[C@@H]2NC(=O)[C@@H](Cc3ccccc3)NC(=O)[C@H](CC(=O)O)NC(=O)CNC(=O)[C@H](CCCNC(=N)N)NC2=O)NC(=O)[C@@H](Cc2ccccc2)NC(=O)[C@H](CC(=O)O)NC(=O)CNC1=O [indium-111 labelled] |  |  | female athymic nu/nu mice, muscle | intravenous, 111 kBq, 4 h |  | tissue uptake | 0.39 ± 0.05 %ID/g |
| Cc1cc(-c2ccc(NC(=O)[C@H](CCCCNC(=O)CCN3C(=O)CC(SCCC(=O)N[C@H](Cc4ccccc4)C(=O)N[C@H]4CSSC[C@@H](C(=O)N[C@H](C(=O)O)[C@@H](C)O)NC(=O)[C@H]([C@@H](C)O)NC(=O)[C@H](CCCCN)NC(=O)[C@@H](Cc5c[nH]c6ccccc56)NC(=O)[C@H](Cc5ccc(O)cc5)NC4=O)C3=O)NC(=O)CN3CCN(CC(=O)O)CCN(CC(=O)O)CCN(CC(=O)O)CC3)c(C)c2)ccc1N=Nc1ccc2c(S(=O)(=O)O)cc(S(=O)(=O)O)c(N)c2c1O (stereo partly drawn) [gallium-68 labelled] |  | micro-PET | male BALB/c nude mouse, AR42J xenograft, tumour and kidney | intravenous, 7.4 MBq, 4 h | baseline: tumour over kidney | tumour-to-tissue uptake ratio | 1.16 ± 0.19 |
| CC[C@H](C)[C@H](NC(=O)[C@H](CCN)NC(=O)[C@H](Cc1ccccc1)NC(=O)[C@H](Cc1ccccc1)NC(=O)CCCCCOC(=O)c1cn(C2CC2)c2cc(N3CCNCC3)c(F)cc2c1=O)C(=O)N[C@@H](CCN)C(=O)N[C@H](Cc1ccccc1)C(=O)N[C@@H](CC(C)C)C(=O)N[C@@H](CCN)C(=O)N[C@@H](C(=O)N[C@@H](CC(C)C)C(=O)N[C@@H](CO)C(N)=O)C(C)C |  | light transmittance | PBS | pH 7.4 |  | critical micelle concentration | 333 µM |
| N=C(N)NCCC[C@@H]1NC(=O)[C@H](CCCCNC(=O)CNC(=O)CNC(=O)CNC(=O)CC[C@H](NC(=O)CNC(=O)CNC(=O)CNC(=O)CC[C@H](NC(=O)CN2CCN(CC(=O)O)CCN(CC(=O)O)CCN(CC(=O)O)CC2)C(=O)NCC(=O)NCC(=O)NCC(=O)N[C@@H](CCC(=O)NCC(=O)NCC(=O)NCC(=O)NCCCC[C@@H]2NC(=O)[C@@H](Cc3ccccc3)NC(=O)[C@H](CC(=O)O)NC(=O)CNC(=O)[C@H](CCCNC(=N)N)NC2=O)C(=O)NCC(=O)NCC(=O)NCC(=O)NCCCC[C@@H]2NC(=O)[C@@H](Cc3ccccc3)NC(=O)[C@H](CC(=O)O)NC(=O)CNC(=O)[C@H](CCCNC(=N)N)NC2=O)C(=O)NCC(=O)NCC(=O)NCC(=O)NCCCC[C@@H]2NC(=O)[C@@H](Cc3ccccc3)NC(=O)[C@H](CC(=O)O)NC(=O)CNC(=O)[C@H](CCCNC(=N)N)NC2=O)NC(=O)[C@@H](Cc2ccccc2)NC(=O)[C@H](CC(=O)O)NC(=O)CNC1=O [indium-111 labelled] |  |  | female athymic nu/nu mice, U87MG tumour | intravenous, 111 kBq, 24 h |  | tissue uptake | 8.68 ± 1.42 %ID/g |
| CCCC[C@H](NC(=O)COCCOCCNC(=O)CN1CCN(CC(=O)O)CCN(CC(=O)O)CC1)C(=O)N[C@H]1CC(=O)NCCCC[C@@H](C(N)=O)NC(=O)[C@H](Cc2c[nH]c3ccccc23)NC(=O)[C@H](CCCNC(=N)N)NC(=O)[C@@H](Cc2ccccc2)NC(=O)[C@H](Cc2c[nH]cn2)NC1=O [copper-64 labelled] |  |  | C57 mice, heart | intravenous, 0.37 MBq, 2 h |  | tissue uptake | 0.19 ± 0.01 %ID/g |
| CS(C)=O.CS(C)=O.[Cl][Cu][Cl].c1ccc(-c2nnc(-c3ccc4c(c3)OCO4)[nH]2)nc1 | T24 | FITC-LEHD-FMK flow cytometry |  | 5.3 µM, 24 h |  | activated caspase-9 cells | 44.6% |
| Cc1cc(-c2ccc(NC(=O)[C@H](CCCCNC(=O)CCOCCOCCC(=O)N[C@H](Cc3ccccc3)C(=O)N[C@H]3CSSC[C@@H](C(=O)N[C@H](C(=O)O)[C@@H](C)O)NC(=O)[C@H]([C@@H](C)O)NC(=O)[C@H](CCCCN)NC(=O)[C@@H](Cc4c[nH]c5ccccc45)NC(=O)[C@H](Cc4ccc(O)cc4)NC3=O)NC(=O)CN3CCN(CC(=O)O)CCN(CC(=O)O)CCN(CC(=O)O)CC3)c(C)c2)ccc1N=Nc1ccc2c(S(=O)(=O)O)cc(S(=O)(=O)O)c(N)c2c1O [lutetium-177 labelled] |  | SPECT/CT dosimetry | patients with metastatic NETs, all tumour lesions |  |  | absorbed dose | 2.14 ± 1.41 Gy/GBq |
| NS(=O)(=O)c1ccc(NC(=O)NN[C@@H]2O[C@H](CO)[C@@H](O)[C@H](O)[C@@H]2O)cc1 | rabbit erythrocytes |  |  | 16 µg/mL, 3 h | baseline: complete lysis | hemolysis | 0% |
| [64Cu+2].c1cnc(CNCc2ccc(CN3CCCN4CCNCCCN(CC4)CC3)cc2)nc1 | CXCR4 |  | NOD/SCID mouse, U87 and U87-stb-CXCR4 xenografts, stomach | iv, 450 min, ex vivo |  | tissue uptake | 2.54 ± 0.32 %ID/g |
| COc1ccc2cc([C@H](C)C(=O)N[C@H](Cc3ccccc3)C(=O)N[C@H](Cc3ccccc3)C(=O)O)ccc2c1 |  | oscillatory rheology | hydrogel 0.8 wt% |  |  | critical strain | 1% |

Some of these lines once more:
| SMILES | target or system | test | system | conditions | how to read | measurement | result |
| --- | --- | --- | --- | --- | --- | --- | --- |
| N=C(N)NCCC[C@@H]1NC(=O)[C@H](CCCCNC(=O)CNC(=O)CNC(=O)CNC(=O)CC[C@H](NC(=O)CNC(=O)CNC(=O)CNC(=O)CC[C@H](NC(=O)CN2CCN(CC(=O)O)CCN(CC(=O)O)CCN(CC(=O)O)CC2)C(=O)NCC(=O)NCC(=O)NCC(=O)N[C@@H](CCC(=O)NCC(=O)NCC(=O)NCC(=O)NCCCC[C@@H]2NC(=O)[C@@H](Cc3ccccc3)NC(=O)[C@H](CC(=O)O)NC(=O)CNC(=O)[C@H](CCCNC(=N)N)NC2=O)C(=O)NCC(=O)NCC(=O)NCC(=O)NCCCC[C@@H]2NC(=O)[C@@H](Cc3ccccc3)NC(=O)[C@H](CC(=O)O)NC(=O)CNC(=O)[C@H](CCCNC(=N)N)NC2=O)C(=O)NCC(=O)NCC(=O)NCC(=O)NCCCC[C@@H]2NC(=O)[C@@H](Cc3ccccc3)NC(=O)[C@H](CC(=O)O)NC(=O)CNC(=O)[C@H](CCCNC(=N)N)NC2=O)NC(=O)[C@@H](Cc2ccccc2)NC(=O)[C@H](CC(=O)O)NC(=O)CNC1=O [indium-111 labelled] |  |  | female athymic nu/nu mice, U87MG tumour | intravenous, 111 kBq, 24 h |  | tissue uptake | 8.68 ± 1.42 %ID/g |
| CCCC[C@H](NC(=O)COCCOCCNC(=O)CN1CCN(CC(=O)O)CCN(CC(=O)O)CC1)C(=O)N[C@H]1CC(=O)NCCCC[C@@H](C(N)=O)NC(=O)[C@H](Cc2c[nH]c3ccccc23)NC(=O)[C@H](CCCNC(=N)N)NC(=O)[C@@H](Cc2ccccc2)NC(=O)[C@H](Cc2c[nH]cn2)NC1=O [copper-64 labelled] |  |  | C57 mice, heart | intravenous, 0.37 MBq, 2 h |  | tissue uptake | 0.19 ± 0.01 %ID/g |
